Results of several laboratories.
Compare with care: the assays were run in different laboratories. ± marks the error that the study gave. No end group written: not given here.
B1: bicyclic; chain AATCHCRRSCYSTEYSYGTCTVMGINHRFCCL (also: bicyclic or more (positions not given here))

| Substance | assay | test system | conditions | how to read | quantity | value |
| --- | --- | --- | --- | --- | --- | --- |
| O=c1cc(-c2ccccc2)oc2cc(O)c(O)c(O)c12 | mass spectrometry | Caco-2 | 40 µM, 6 h |  | Papp A→B | 2.89 ×10⁻⁶ cm/s |
| C/C=C/C=C/C=C/CC/C=C/C(=O)NCC(C)(C)O |  | rat, small intestine site 4 contents | oral, dose not given, 2 h, no β-glucuronidase treatment | reference: ingested amount | recovery | 0.01% |
| CCn1c(C(=O)c2cc(C)cc(C#N)c2)c(C(C)C)c(=O)[nH]c1=O |  | healthy humans, plasma | oral, 600 mg once daily, 7 days |  | Cmax at steady state | 1100 ± 489 ng/mL |
| C#C[C@]1(O)CC[C@H]2[C@@H]3CCc4cc(O)ccc4[C@H]3CC[C@@]21C | shake-flask | polysorbate 80 | 37 °C |  | thermodynamic solubility | ≥ 99.4 mg/g |
| des-acyl ghrelin (human) |  | Ghsr knockout mice, pons and medulla | intravenous, dose not given, 10 min, vascular space corrected |  | tissue/serum ratio | 14.1 µL/g |
| CC(C)NCC(O)COc1cccc2ccccc12 (stereo not drawn) |  | male Hartley guinea pig, anaesthetized | intravenous infusion, 0.3 mg/kg, 10 min infusion | reference: baseline | QTc change | -1.6 ± 1.2% |
| O=C(Nc1ccc([N+](=O)[O-])cc1Cl)c1cc(Cl)ccc1O | shake-flask | PEG400 | 37 °C |  | thermodynamic solubility | 61.7 ± 1.72 mg/g |
| CCCC(C)N1CCC(N(Cc2ccccc2)C(=O)Nc2ccc(C(F)(F)F)nc2C)CC1 (stereo not drawn) |  | CD-1 female mouse, liver microsomes | 0.8 µM |  | intrinsic clearance | < 13 mL/min/kg |
| COc1ccc2c(c1OC)C(=O)O[C@@H]2[C@H]1c2c(cc3c(c2OC)OCO3)CCN1C | shake-flask | PEG400 | 37 °C |  | thermodynamic solubility | 19.4 ± 0.94 mg/g |
| CNC(=O)c1ccc(-c2cnn3ccc(C(=O)N(C[C@H]4CCC(=O)O4)c4ccc(OC(F)(F)F)cc4)cc23)cc1 |  | female C57BL/6 mouse, plasma | oral, 10 mg/kg |  | AUC | 0.075 µM·h |
| CCCCCCCCCCCCCCCCCCOP(=O)([O-])OC1CC[N+](C)(C)CC1 |  | rhesus monkey, male, plasma | oral, 7 mg/kg, single dose |  | AUC(0-inf) | 1430 µg·h/mL |
| CN1C(=O)C2(Nc3ccccc3C(=O)N2Cc2cccnc2)c2cc(Br)ccc21 (stereo not drawn) | shake flask | aqueous buffer | pH 7.4 |  | logD | 2.6 |
| CCCCCCCCCCCCCCCC(=O)OC[C@H]1O[C@H](OC)[C@@H](O)[C@@H](O)[C@@H]1OC(=O)CCCCCCCCCCCCCCC | tensiometry | water |  |  | critical micelle concentration range | 0.25 to 5 µM |
| CC1(C)C(/C=C/C=C/C=C/C=C2\N(CCCCS(=O)(=O)O)c3ccc4ccccc4c3C2(C)C)=[N+](CCCCS(=O)(=O)[O-])c2ccc3ccccc3c21 | NIR fluorescence imaging | mouse, ear | intravenous |  | extravasation half-life | 6.5 min |
| CCc1cn([C@@H]2O[C@H](CO)[C@@H](O)[C@H]2O)c2ncnc(C)c12 | metabolic stability | mouse, liver microsomes | 0 h |  | compound remaining | 100% |
| CCCC[C@H](NC(C)=O)C(=O)N[C@H]1CCC(=O)NC[C@@H](C(=O)N[C@@H](Cc2c[nH]c3ccccc23)C(N)=O)NC(=O)[C@H](CCCNC(=N)N)NC(=O)[C@@H](Cc2ccccc2)NC(=O)[C@H](Cc2c[nH]cn2)NC1=O |  | healthy human, both sexes, plasma | subcutaneous, 3.0 mg once daily, day 1, geometric mean |  | Vd/F | 242 L |
| CC(C)(CC(=O)N1CCCC1)NCC(=O)N1C[C@@H](F)C[C@H]1C#N |  | Chinese type 2 diabetes patients, plasma | oral, 100 mg once daily, multiple doses |  | AUC(0-inf) at steady state | 1.52 µg·h/mL |
| CC(C)=CCC/C(C)=C/CO |  | rat | intravenous infusion, 12.5 mg, 2 h |  | fraction eliminated | 99.9% |
| CC[C@H](C)CCCCC(=O)N[C@@H](CCN)C(=O)N[C@H](C(=O)N[C@@H](CCN)C(=O)N[C@H]1CCNC(=O)[C@H]([C@@H](C)O)NC(=O)[C@H](CCN)NC(=O)[C@H](CCN)NC(=O)[C@H](CC(C)C)NC(=O)[C@@H](Cc2ccccc2)NC(=O)[C@H](CCN)NC1=O)[C@@H](C)O | UPLC-MS/MS | intensive care patients Non-AKI, plasma | iv, dose not given, 6 h post-dose, steady state, polymyxin B dosing |  | mid-interval concentration | 2500 ± 800 ng/mL |
| NS(=O)(=O)OC[C@@H]1C[C@@H](n2ccc3c(N[C@H]4CCc5ccccc54)ncnc32)C[C@@H]1O |  | human | intravenous, dose not given, together with: itraconazole |  | patients with grade ≥3 drug-related AEs | 5% |
| CC1(C)Oc2cc3oc(=O)ccc3cc2C[C@@H]1O |  | CD-1 mouse, male, kidney | oral gavage, 80 mg/kg daily, 4 weeks |  | organ weight | 0.67 ± 0.1 g |

| Substance | assay | test system | conditions | how to read | quantity | value |
| --- | --- | --- | --- | --- | --- | --- |
| CCCCC/C=C/C(=O)CCc1ccc(O)c(OC)c1 |  | rat, small intestine site 4 contents | oral, dose not given, 2 h, no β-glucuronidase treatment | reference: ingested amount | recovery | 0.35% |
| CCN(CC)C(=S)SSC(=S)N(CC)CC | shake-flask | Captex 355 | 37 °C |  | thermodynamic solubility | 54.7 ± 2.39 mg/g |
| Cn1c(-c2ccc(C(N)=O)cc2F)nnc1C(C)(C)Oc1c(F)cc(Cl)cc1F |  | young Japanese adults, plasma | oral, 20 mg single dose, day 1, high-dose multiple-dose study |  | half-life median | 1100 min |
| Cc1nc2cccc(OCC(C)(C)C(=O)NC(C)C)c2c(N)c1C(=O)O |  | Sprague-Dawley rat (both sexes), plasma | dietary, 60 mg/kg/day, day 7 |  | Cmax | 27.2 ng/mL |
| CCn1c2ccccc2c2cc(-n3nncc3-c3ccccc3)ccc21 |  | female BALB/c mouse, kidney | intraperitoneal, 10 mg/kg, single dose |  | Tmax | 40.2 min |
| CC1=C2C[C@H]3[C@@H](CC[C@@H]4C[C@H](NS(C)(=O)=O)CC[C@@]43C)[C@@H]2CC[C@@]2(C1)O[C@@H]1C[C@H](C)CN[C@H]1[C@H]2C |  | patients, plasma | oral, 40 mg single, day -7, cycle 1 |  | AUC(0-24) | 0.122 µg·h/mL |
| CC(=O)[C@H]1CC[C@H]2[C@@H]3CCC4=CC(=O)CC[C@]4(C)[C@H]3CC[C@]12C | shake-flask | PEG400 | 37 °C |  | thermodynamic solubility | 17.1 ± 0.71 mg/g |
| Cc1c(O)cccc1C(=O)N[C@@H](CSc1ccccc1)[C@H](O)CN1C[C@H]2CCCC[C@H]2C[C@H]1C(=O)NC(C)(C)C | equilibrium dialysis | cellulose membrane, cell-free | pH 7.4, together with: 0.5% w/w Pluronic P85 |  | effective permeability | 53.1 ± 4.9 ×10⁻⁶ cm/s |
| CCOC(=O)C1=C(C)NC(C)=C(C(=O)OC)C1c1cccc(Cl)c1Cl (stereo not drawn) | shake-flask | polysorbate 80 | 37 °C |  | thermodynamic solubility | 45.2 ± 4.36 mg/g |
| CCCC[C@@H]1NC(=O)[C@@H](NC(=O)[C@H](CCC(=O)O)NC(=O)CNC(=O)CN2CCN(CC(=O)O)CCN(CC(=O)O)CCN(CC(=O)O)CC2)CCCCNC(=O)C[C@@H](C(N)=O)NC(=O)[C@H](C(C)C)NC(=O)[C@@H]2CCCN2C(=O)[C@H](CCCNC(=N)N)NC(=O)CNC(=O)[C@H](Cc2c[nH]c3ccccc23)NC(=O)[C@H](CCCNC(=N)N)NC(=O)[C@@H](Cc2ccccc2)NC(=O)[C@H](Cc2c[nH]cn2)NC(=O)[C@H](CCC(=O)O)NC1=O [indium-111 labelled] |  | C57 mice, B16/F10 lung metastatic melanoma, heart | intravenous, 0.037 MBq, 2 h |  | tissue uptake | 0.2 ± 0.09 %ID/g |
| B1 | analytical ultracentrifugation | 10 mM sodium phosphate | 40 to 160 µM, pH 7.4, 20 °C |  | sedimentation coefficient s20,w | ~0.8 S |
| O=C(O)CNC(=O)/C=C/c1ccccc1 |  | human hemodialysis patients, plasma | pre-treatment | reference: hemodialysis over normal subjects | total plasma concentration ratio | 28 |
| CC(C)NC(=O)[C@H]1CCC[C@H]1Nc1nc(Nc2ccc(C(=O)N(C)C3CCN(C)CC3)cc2)ncc1C(F)(F)F |  | advanced solid tumour patients | dose not given |  | patients with AEs | 15.7% |
| CCCC[C@H](NC(=O)CN1CCN(CC(=O)O)CCN(CC(=O)O)CCN(CC(=O)O)CC1)C(=O)N[C@H]1CC(=O)NCCCC[C@@H](C(N)=O)NC(=O)[C@H](Cc2c[nH]c3ccccc23)NC(=O)[C@H](CCCNC(=N)N)NC(=O)[C@@H](Cc2ccccc2)NC(=O)[C@H](Cc2c[nH]cn2)NC1=O [indium-111 labelled] |  | B16/F1 melanoma C57 mice, kidney | 4 h | reference: 99mTc(CO)3-pz-βAla-Nle-cyclo[Asp-His-D-Phe-Arg-Trp-Lys]-NH2 | renal uptake | 31.1% |
| CC[C@H](C)[C@@H]1NC(=O)[C@H](CCCNC(=N)N)NC(=O)[C@H](CC(=O)O)NC(=O)[C@H](CC(C)C)NC(=O)[C@H](CCCCN)NC(=O)[C@H](CC(C)C)NC(=O)CNC(=O)[C@H](Cc2ccccc2)NC(=O)[C@@H](NC(=O)CNC(=O)[C@H](CCCCN)NC(=O)[C@H](CO)NC(=O)[C@H](CC(C)C)NC(=O)CNC(=O)[C@H](CCCCN)NC(=O)[C@H](CCCCN)NC(=O)[C@H](CC(N)=O)NC(=O)[C@H](C)NC(=O)CNC(=O)[C@H](CCCCN)NC(=O)[C@H](Cc2ccc(O)cc2)NC(=O)[C@H](CCCCN)NC(=O)[C@H](CCCNC(=N)N)NC(=O)[C@H](C)NC(=O)[C@H](CC(N)=O)NC(=O)[C@@H]2CCCN2C(=O)[C@H](Cc2c[nH]cn2)NC(=O)[C@H](CCC(=O)O)NC(=O)[C@H](CCC(N)=O)NC(=O)CNC(=O)[C@@H]2CCCN2)CSSC[C@@H](C(=O)O)NC(=O)CNC(=O)[C@H](CC(C)C)NC(=O)CNC(=O)[C@H](CO)NC(=O)[C@H](CCSC)NC(=O)[C@H](CO)NC(=O)CNC1=O | bridging ECLA | human patients with achondroplasia, serum | subcutaneous, 15 µg/kg daily |  | anti-drug antibody incidence | 42% |
| CCOc1nc2cccc(C(=O)O)c2n1Cc1ccc(-c2ccccc2-c2nnn[nH]2)cc1 | shake-flask | PEG400 | 37 °C |  | thermodynamic solubility | 12.9 ± 1.33 mg/g |
| Oc1ccc(C(c2ccc(O)cc2)(C(F)(F)F)C(F)(F)F)cc1 | refers to: free compound | Hsd:Sprague Dawley rat female, plasma | oral gavage, 340 mg/kg single dose |  | alpha half-life | 54.7 min |
| O=C(CCc1ccccc1)c1ccccc1OCC(O)CN1CCN(C(c2ccccc2)c2ccccc2)CC1 (stereo not drawn) | metabolic stability | female mouse, liver microsomes | 20 µM, pH 7.4 |  | scaled CLint | 69.7 mL/min/kg |
| Cc1cc(-n2c(=O)[nH]c(=O)n(C)c2=O)ccc1Oc1ccc(SC(F)(F)F)cc1 | shake-flask | PEG400 | 37 °C |  | thermodynamic solubility | 18.3 ± 2.27 mg/g |
| C[C@H](Nc1ccc(C#N)n(C)c1=O)c1cc2cc(Cl)ccc2[nH]c1=O |  | patients | oral, 150 mg twice daily |  | QTc interval increase | 6.2 ms |
| Oc1ccc2c3c(cnc2c1)-c1ccc(C(F)(F)F)cc1O[C@@H]3c1ccc(OCCN2CC(CF)C2)cc1 |  | human, healthy female, urine and faeces | oral, 400 mg, 480 h |  | total radioactivity recovery | 97.5% |

Some of these lines once more:
| Substance | assay | test system | conditions | how to read | quantity | value |
| --- | --- | --- | --- | --- | --- | --- |
| C/C=C/C=C/C=C/CC/C=C/C(=O)NCC(C)(C)O |  | rat, small intestine site 4 contents | oral, dose not given, 2 h, no β-glucuronidase treatment | reference: ingested amount | recovery | 0.01% |
| CCn1c(C(=O)c2cc(C)cc(C#N)c2)c(C(C)C)c(=O)[nH]c1=O |  | healthy humans, plasma | oral, 600 mg once daily, 7 days |  | Cmax at steady state | 1100 ± 489 ng/mL |
| C#C[C@]1(O)CC[C@H]2[C@@H]3CCc4cc(O)ccc4[C@H]3CC[C@@]21C | shake-flask | polysorbate 80 | 37 °C |  | thermodynamic solubility | ≥ 99.4 mg/g |
| des-acyl ghrelin (human) |  | Ghsr knockout mice, pons and medulla | intravenous, dose not given, 10 min, vascular space corrected |  | tissue/serum ratio | 14.1 µL/g |
| CC(C)NCC(O)COc1cccc2ccccc12 (stereo not drawn) |  | male Hartley guinea pig, anaesthetized | intravenous infusion, 0.3 mg/kg, 10 min infusion | reference: baseline | QTc change | -1.6 ± 1.2% |
| O=C(Nc1ccc([N+](=O)[O-])cc1Cl)c1cc(Cl)ccc1O | shake-flask | PEG400 | 37 °C |  | thermodynamic solubility | 61.7 ± 1.72 mg/g |
| CCCC(C)N1CCC(N(Cc2ccccc2)C(=O)Nc2ccc(C(F)(F)F)nc2C)CC1 (stereo not drawn) |  | CD-1 female mouse, liver microsomes | 0.8 µM |  | intrinsic clearance | < 13 mL/min/kg |
